Published values pooled from the literature.
A part holds a random share of what one study measured.

Set 1 — observed: enzyme activity; mode: inhibitor; concentration: 20 µM; measurement: inhibition
Target: Replicase polyprotein 1ab, polymerase (rep, Severe acute respiratory syndrome coronavirus 2, UniProt P0DTD1)
CCN(CC)CCN(Cc1ccc(-c2ccc(C(F)(F)F)cc2)cc1)C(=O)Cn1c(SCc2ccc(F)cc2)nc(=O)c2c1CCC2: 4.68%
O=C(c1cc2ccccc2o1)N1CCN(Cc2ccccc2)CC1: 4.5%
CC(C)=CCC/C(C)=C/CC/C(C)=C/CC[C@]1(C)CCc2cc(O)cc(C)c2O1: 1.88%
CC(C)OC(=O)Nc1cccc(Cl)c1: 4.22%
Nc1nc(Nc2ccc3c(c2)CC[C@@H](N2CCCC2)CC3)nn1-c1cc2c(nn1)-c1ccccc1CCC2: 2.24%
CC[C@@]1(O)C(=O)OCc2c1cc1n(c2=O)Cc2cc3ccccc3nc2-1: -5.16%
O=C(O)CCN(O)C(=O)CCCCCCCCC1CC1: -0.57%
COc1ccc(C(CN(C)C)C2(O)CCCCC2)cc1 (centres unmarked): -5.04%
Cc1cc([C@@H](C)Nc2ccccc2C(=O)O)c2nc(N3CCOCC3)cc(=O)n2c1: 3.09%
CNC(=O)c1c(I)c(C(=O)NCC(=O)Nc2c(I)c(C(=O)O)c(I)c(C(=O)NCCO)c2I)c(I)c(N(C)C(C)=O)c1I: -3.2%
Cn1cc(-c2ccncc2)c(-c2ccc(OCc3ccc4ccccc4n3)cc2)n1: 6.68%
Oc1ccc(O)cc1: -3.23%
O=C(O)COc1cccc(-c2ocnc2-c2nc(-c3ccccc3)c(-c3ccccc3)o2)c1: 1.38%
CC(C)(C)C(=O)OCOC(=O)[C@@H]1N2C(=O)C[C@H]2S(=O)(=O)C1(C)C: 2.33%
Cc1cc(-c2ccc3c(c2)CC[C@H]3N2CC3(CCN(C(=O)Cc4cn5cc(C)sc5n4)CC3)C2)ncn1: 7.17%
C=C[C@@H]1C2=CCOC(=O)C2=CO[C@H]1O[C@@H]1O[C@H](CO)[C@@H](O)[C@H](O)[C@H]1O: -7.02%
C[C@]12CCC(=O)C=C1[C@@H]1C[C@@H]1[C@H]1[C@@H]3[C@@H]4C[C@@H]4[C@@]4(CCC(=O)O4)[C@@]3(C)CC[C@@H]12: -4.29%
O=C(CCCN1CCC2(CC1)C(=O)N(Cc1cccc(F)c1)CN2c1ccccc1)c1ccc(F)cc1: -4.72%
CCN1CCC[C@H]1CNC(=O)c1c(OC)ccc(Br)c1OC: 4.77%
COC(=O)C1=C(C)NC(C)=C(C(=O)OC)C1c1ccccc1[N+](=O)[O-]: 35%
CNC(=O)c1ccc2c(c1)S(=O)(=O)c1ccccc1C2=O: 0.47%
CO[C@H]1/C=C/O[C@@]2(C)Oc3c(C)c(O)c4c(O)c(c5c(nc6cc(C)ccn65)c4c3C2=O)NC(=O)/C(C)=C\C=C\[C@H](C)[C@H](O)[C@@H](C)[C@@H](O)[C@@H](C)[C@H](OC(C)=O)[C@@H]1C: 0.61%
CCCCOC(=O)c1cc2c(cn1)[nH]c1ccccc12: -2.74%
O=C(NC(=O)c1c(F)cccc1Cl)NC1c2ccccc2-c2ccccc21: -1.66%
O=C(Oc1cc(S(=O)(=O)c2ccccc2)ccc1[N+](=O)[O-])c1ccc(Cl)cc1: -0.03%

Set 2 — technique: universal PBM; molecule type: double-stranded DNA, one strand shown; sample: in vitro; concentration: 600 nM; direction: higher = stronger binding; measurement: E-score
Target: Sal-like protein 4, full length isoform A (SALL4, Homo sapiens, UniProt Q9UJQ4, residues 1-1053)
UniProt Q9UJQ4, sequence (whole entry, looked up): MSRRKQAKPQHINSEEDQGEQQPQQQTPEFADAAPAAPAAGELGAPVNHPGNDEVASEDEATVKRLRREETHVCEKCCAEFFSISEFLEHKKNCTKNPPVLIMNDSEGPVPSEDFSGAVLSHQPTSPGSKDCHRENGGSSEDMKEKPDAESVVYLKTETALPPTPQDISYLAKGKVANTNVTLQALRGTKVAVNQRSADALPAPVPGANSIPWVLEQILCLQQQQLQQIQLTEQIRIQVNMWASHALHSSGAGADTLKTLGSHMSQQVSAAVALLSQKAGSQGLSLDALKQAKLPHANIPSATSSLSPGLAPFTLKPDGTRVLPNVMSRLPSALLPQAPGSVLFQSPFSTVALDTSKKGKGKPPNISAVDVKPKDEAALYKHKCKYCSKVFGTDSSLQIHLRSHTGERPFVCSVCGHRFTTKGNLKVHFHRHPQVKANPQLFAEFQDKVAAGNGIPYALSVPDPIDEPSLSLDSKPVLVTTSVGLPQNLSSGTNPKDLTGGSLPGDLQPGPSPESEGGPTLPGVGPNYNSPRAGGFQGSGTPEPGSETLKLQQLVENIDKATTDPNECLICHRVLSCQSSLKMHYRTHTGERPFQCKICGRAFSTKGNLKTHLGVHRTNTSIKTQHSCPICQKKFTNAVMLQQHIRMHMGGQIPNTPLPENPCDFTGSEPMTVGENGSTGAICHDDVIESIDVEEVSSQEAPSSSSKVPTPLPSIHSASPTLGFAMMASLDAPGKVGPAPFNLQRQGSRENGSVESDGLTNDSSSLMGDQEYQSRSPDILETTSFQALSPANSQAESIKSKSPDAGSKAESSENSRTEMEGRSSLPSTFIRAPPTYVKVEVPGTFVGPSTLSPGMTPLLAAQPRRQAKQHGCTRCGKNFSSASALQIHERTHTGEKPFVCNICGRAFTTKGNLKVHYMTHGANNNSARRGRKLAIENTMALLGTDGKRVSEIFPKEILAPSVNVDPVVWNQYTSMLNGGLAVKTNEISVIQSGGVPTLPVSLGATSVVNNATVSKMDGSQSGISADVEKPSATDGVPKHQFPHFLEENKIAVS
Notes: 8-mer, flanks averaged, mean of replicates
ATCAGGGG: -0.0983
CTTTTGGA: 0.0275
CACCCCGC: -0.181
AAAGAGAG: -0.0501
GGGCTAAC: -0.244
CAAAGTAG: 0.102
ATCGGGAC: -0.191
ACTGCCAG: -0.0786

Set 3 — technique: RNA Bind-n-Seq; molecule type: RNA; sample: in vitro; concentration: 100 nM; reference: input RNA pool; direction: higher = stronger binding; measurement: bound/input enrichment
Target: RING finger protein unkempt homolog, zinc fingers 1-6, SBP tag (UNK, Homo sapiens, UniProt Q9C0B0, residues 30-357)
UniProt Q9C0B0, sequence (30-357, looked up): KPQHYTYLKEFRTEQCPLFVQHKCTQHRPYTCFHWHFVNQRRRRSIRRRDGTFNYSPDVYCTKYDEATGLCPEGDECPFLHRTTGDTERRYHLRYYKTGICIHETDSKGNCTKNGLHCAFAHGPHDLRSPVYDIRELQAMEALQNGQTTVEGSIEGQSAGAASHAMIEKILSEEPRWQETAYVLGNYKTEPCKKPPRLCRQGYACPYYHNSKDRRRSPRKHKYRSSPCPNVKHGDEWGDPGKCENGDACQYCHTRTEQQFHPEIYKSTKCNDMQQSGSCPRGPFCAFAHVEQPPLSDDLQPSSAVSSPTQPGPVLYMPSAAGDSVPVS
Notes: RNA with constant flanks, vertebrate orthologous sites, ends assumed
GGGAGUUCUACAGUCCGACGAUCAGGGACGCUUUGAUGUAAAAAUUGAAGUUAAGAGCUGAUCACAAGCACAAAUCUUUCCCACUAGCCAUUUAAUAAGUUAAAAAAGAUACAAAACAAAACCUACUAGUCUUGAACAAACUGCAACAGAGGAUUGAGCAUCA: 1.65 ratio
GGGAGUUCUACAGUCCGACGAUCGCUCUAUAACAAGUAGAAUGAGCUCCCCUUUCUACUUCUUCCGGGAGCAAAACCCCCCAAAAAAUUCCAGACACAUCUGAUUAUACUGUUCUGUUUUUGGUUUUUAUUAUUUUUACAUAUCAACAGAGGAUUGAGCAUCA: 1.36 ratio
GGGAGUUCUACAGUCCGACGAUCCUCAGAAGAGCUGCAUAGGGUCCUGUUCUCCGUAGAACACUCUGUCUCUGUUCUGUGGCCCUCGGGGUGCGGCAGGGGUGGCGGUGCGCCCCAGCCCUGAGGCUCGAGUGUGUGUGGCUCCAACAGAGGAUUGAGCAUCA: 0.38 ratio
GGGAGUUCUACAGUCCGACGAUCUGUCUGCCUCAUUCUCAAAUUUACACAGUAGACCAUUUGUCAUCCAUGCUGUCCCACAAAUAGUUUUUUUGUUUACGAUUUAUGACAGGUUUAUGUUACUUCUAUUUGAAUUUCUAUAUUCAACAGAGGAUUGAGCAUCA: 1.53 ratio
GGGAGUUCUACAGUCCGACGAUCCUCUAUGGGCCUCGCAGAGUUGAAAUAAUGGAAGAGGAAAGUGAACAGUAAUCUUCAUUUUAGUAUUUAUGCUUAGGUGUGAAAUAAAUGUUAUUUGUUGAUCACUUCUAUAAUCCACAGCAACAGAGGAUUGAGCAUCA: 0.439 ratio
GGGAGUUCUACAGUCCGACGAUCGUUUUCCUCUGAAGCAUGCACCUGCCGCCGUCACCAAAAGCAGAUCGCCUGUUUCCUUUUCAGCGUCACCCUCUUCCUUCCCCUUCCCCCUGCUUCCGAUGAGGGUUUCCGUUUGGCACCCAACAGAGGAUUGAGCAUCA: 2.3 ratio
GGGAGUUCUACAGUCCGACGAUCAAAACCCCGAUUUUAGAUGUGAUAUCUAGGCUUUCAUUCCAGUUGUUUUUGUCUUUUGUUUAGAUACCACUUUUAAAUUCUUGCAUUUUAGUAAGAAAUCUAUCUUUUUAUGGAUGUUAGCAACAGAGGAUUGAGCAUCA: 0.686 ratio
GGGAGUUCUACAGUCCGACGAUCGAACCUAAACUUAUAGCAAAAGAGCCAAGCAGUAGCAGUUUUUGUAAAUGUAAAAAUAAUUAGAUCCAGACUUUGUUUCCUUCAAUUUUAAAAAUAAAAAAUACCUCAGUGCUAUGUUUUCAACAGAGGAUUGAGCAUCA: 1.03 ratio

Set 4 — observed: enzyme activity; mode: inhibitor; concentration: 20 µM; notes: hit confirmation; measurement: inhibition
Target: Replicase polyprotein 1ab, main protease (rep, Severe acute respiratory syndrome coronavirus 2, UniProt P0DTD1)
Cc1nc(=O)c2c([nH]1)CCSC2: 35.8%
CCCC[C@H](NC(=O)[C@@H]1[C@@H]2[C@H](CN1C(=O)[C@@H](NC(=O)NC1(CS(=O)(=O)C(C)(C)C)CCCCC1)C(C)(C)C)C2(C)C)C(=O)C(=O)NC1CC1: 55.3%
Oc1cc2c(c(Cl)c1O)CCNCC2c1ccccc1 (centres unmarked): 64.6%
CCN(CC)C(=S)SSC(=S)N(CC)CC: 99.9%
c1ccc2sc(SSc3nc4ccccc4s3)nc2c1: 109%

Set 5 — cell line: HEK-293T; observed: pseudovirus infection; technique: FDA-approved drug library screen; organism: VSV pseudotyped with SARS-CoV-2 spike; concentration: 10 µM; time: 16 h; reference: vehicle-treated; measurement: GFP-positive cells
Cc1c(OCC(F)(F)F)ccnc1C[S+]([O-])c1nc2ccccc2[nH]1 (centres unmarked): 105%
CCN(CCO)CCCC(C)Nc1ccnc2cc(Cl)ccc12 (centres unmarked): 37.3%
COC(=O)[C@H]1[C@H]2C[C@@H]3c4[nH]c5cc(OC)ccc5c4CCN3C[C@H]2C[C@@H](OC(=O)c2cc(OC)c(OC)c(OC)c2)[C@@H]1OC: 65%
CC[C@H]1OC(=O)[C@H](C)[C@@H](O[C@H]2C[C@@](C)(OC)[C@@H](O)[C@H](C)O2)[C@H](C)[C@@H](O[C@@H]2O[C@H](C)C[C@H](N(C)C)[C@H]2O)[C@](C)(O)C[C@@H](C)C(=O)[C@H](C)[C@@H](O)[C@]1(C)O: 86.6%

Excerpt of the above (set 1):
CCCCOC(=O)c1cc2c(cn1)[nH]c1ccccc12: -2.74%
Cc1cc(-c2ccc3c(c2)CC[C@H]3N2CC3(CCN(C(=O)Cc4cn5cc(C)sc5n4)CC3)C2)ncn1: 7.17%
O=C(c1cc2ccccc2o1)N1CCN(Cc2ccccc2)CC1: 4.5%
CNC(=O)c1c(I)c(C(=O)NCC(=O)Nc2c(I)c(C(=O)O)c(I)c(C(=O)NCCO)c2I)c(I)c(N(C)C(C)=O)c1I: -3.2%
CO[C@H]1/C=C/O[C@@]2(C)Oc3c(C)c(O)c4c(O)c(c5c(nc6cc(C)ccn65)c4c3C2=O)NC(=O)/C(C)=C\C=C\[C@H](C)[C@H](O)[C@@H](C)[C@@H](O)[C@@H](C)[C@H](OC(C)=O)[C@@H]1C: 0.61%
O=C(O)CCN(O)C(=O)CCCCCCCCC1CC1: -0.57%
O=C(NC(=O)c1c(F)cccc1Cl)NC1c2ccccc2-c2ccccc21: -1.66%
